Measurements of several laboratories.
Parts stem from different laboratories: compare values within a part only.
UniProt P41595, sequence (whole entry, looked up): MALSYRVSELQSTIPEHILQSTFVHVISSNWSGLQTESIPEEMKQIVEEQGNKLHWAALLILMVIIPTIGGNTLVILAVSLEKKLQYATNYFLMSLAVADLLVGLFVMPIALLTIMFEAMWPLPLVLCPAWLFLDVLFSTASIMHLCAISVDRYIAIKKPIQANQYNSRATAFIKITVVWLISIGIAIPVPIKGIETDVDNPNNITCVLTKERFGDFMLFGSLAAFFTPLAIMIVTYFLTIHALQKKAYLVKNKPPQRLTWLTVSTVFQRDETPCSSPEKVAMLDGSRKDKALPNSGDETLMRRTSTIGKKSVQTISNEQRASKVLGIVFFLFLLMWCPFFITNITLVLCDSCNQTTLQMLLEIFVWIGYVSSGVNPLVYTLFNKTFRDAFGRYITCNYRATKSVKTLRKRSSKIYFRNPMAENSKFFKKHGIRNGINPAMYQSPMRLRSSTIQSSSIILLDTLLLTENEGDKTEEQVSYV

Sample 1 — action: agonist
Target: Beta-1 adrenergic receptor (ADRB1, Homo sapiens, UniProt P08588)
UniProt P08588, sequence (whole entry, looked up): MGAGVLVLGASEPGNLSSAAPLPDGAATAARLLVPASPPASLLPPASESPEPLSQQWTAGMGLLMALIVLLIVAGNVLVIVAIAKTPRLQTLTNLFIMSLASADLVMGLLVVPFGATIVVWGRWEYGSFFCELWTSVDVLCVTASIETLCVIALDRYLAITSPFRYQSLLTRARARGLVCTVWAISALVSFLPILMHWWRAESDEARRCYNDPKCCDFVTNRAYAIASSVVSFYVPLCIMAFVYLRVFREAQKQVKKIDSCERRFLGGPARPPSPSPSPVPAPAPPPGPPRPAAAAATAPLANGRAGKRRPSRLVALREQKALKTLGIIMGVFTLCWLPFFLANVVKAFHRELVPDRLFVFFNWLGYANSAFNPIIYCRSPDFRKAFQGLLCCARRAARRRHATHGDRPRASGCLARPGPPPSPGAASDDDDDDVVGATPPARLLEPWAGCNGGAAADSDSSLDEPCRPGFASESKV
| Structure (SMILES) | EC50 [µM] |
| --- | --- |
| Cc1cc(-c2cc(-c3cccc(C(F)(F)F)c3)nc3c(C)noc23)ccn1 | ≥ 100 |
| Cc1cc(N(C)C)ccc1NC(=O)c1ccc2noc(-c3ccccc3)c2c1 | ≥ 100 |
| COc1cc(OC)c2ccc(=O)oc2c1 | ≥ 100 |
| COc1ccccc1N1CCN([S+](=O)([O-])c2cc(C)c(C)cc2C)CC1 | ≥ 100 |
| Cc1cc(C)n(-c2cc(OCC3CCN(c4nc5c(cc4C#N)CCC5)CC3)ncn2)n1 | ≥ 100 |
| c1cnc(OCC2CCCN(c3ccc4ccccc4n3)C2)nc1 (stereo not drawn) | ≥ 100 |
| O=C(Cc1ccccc1)Nc1ccc([C@@H](O)[C@H]2COCC(=O)N2Cc2ccccn2)cc1 | ≥ 100 |
| COCCn1ccc2c(C3=CCOCC3)nc(-c3cccc(O)c3)cc21 | ≥ 100 |
| Cc1cc(C)n(C2CN(Cc3cccc(OCC(O)CN4CCOCC4)c3)C2)n1 (stereo not drawn) | ≥ 100 |
| COc1ccc(OC)c(-c2cc(-c3ccccc3)nc3c(C)noc23)c1 | ≥ 100 |
| Cc1noc2c(NC3CCOCC3)cc(-c3ccsc3)nc12 | ≥ 100 |
| O=c1c2nc(-c3ccc4c(c3)OCO4)ccc2ncn1-c1ccc(F)cc1F | ≥ 100 |

Sample 2 — effect on: acetyl-histone H4 peptide binding; technique: AlphaScreen displacement; tested at: 50 µM
Target: Bromodomain-containing protein 4, BD1 (BRD4, Homo sapiens, UniProt O60885)
| SMILES | inhibition |
| --- | --- |
| CCc1c(O)[nH]c2nc3ccccc3n2c1=O | 11.1% |
| COc1cc(O)c2c(c1)oc(=O)c1c3cc(O)c(O)cc3oc21 | 23.9% |
| Cn1c(C(C#N)=Cc2ccncc2)nc2ccccc21 | 2.6% |
| COc1cc2c(cc1OC)-c1[nH]nc(Nc3cccc(F)c3)c1C2 | 64.2% |
| O=C(NCc1ccco1)C(=O)c1cn(CC(=O)N2CCOCC2)c2ccccc12 | 25% |
| NC(=O)c1ccsc1NC(=O)CSc1nnc(-c2ccco2)n1-c1ccccc1 | 23.5% |
| CCOC(=O)c1cccc(Nc2nc(N)nc3[nH]cnc23)c1 | 16.6% |
| O=C(CSc1ccc2nnc(-c3cccc(F)c3)n2n1)Nc1nccs1 | 7.5% |
| CC(C)n1cnc2c(Nc3cccc(Cl)c3)nc(NCCO)nc21 | 43.2% |

Sample 3 — effect on: enzyme activity; action: inhibitor; tested at: 0.5 µM; reference: control
Target: Mitogen-activated protein kinase kinase kinase 10 (MAP3K10, Homo sapiens, UniProt Q02779)
UniProt Q02779, sequence (whole entry, looked up): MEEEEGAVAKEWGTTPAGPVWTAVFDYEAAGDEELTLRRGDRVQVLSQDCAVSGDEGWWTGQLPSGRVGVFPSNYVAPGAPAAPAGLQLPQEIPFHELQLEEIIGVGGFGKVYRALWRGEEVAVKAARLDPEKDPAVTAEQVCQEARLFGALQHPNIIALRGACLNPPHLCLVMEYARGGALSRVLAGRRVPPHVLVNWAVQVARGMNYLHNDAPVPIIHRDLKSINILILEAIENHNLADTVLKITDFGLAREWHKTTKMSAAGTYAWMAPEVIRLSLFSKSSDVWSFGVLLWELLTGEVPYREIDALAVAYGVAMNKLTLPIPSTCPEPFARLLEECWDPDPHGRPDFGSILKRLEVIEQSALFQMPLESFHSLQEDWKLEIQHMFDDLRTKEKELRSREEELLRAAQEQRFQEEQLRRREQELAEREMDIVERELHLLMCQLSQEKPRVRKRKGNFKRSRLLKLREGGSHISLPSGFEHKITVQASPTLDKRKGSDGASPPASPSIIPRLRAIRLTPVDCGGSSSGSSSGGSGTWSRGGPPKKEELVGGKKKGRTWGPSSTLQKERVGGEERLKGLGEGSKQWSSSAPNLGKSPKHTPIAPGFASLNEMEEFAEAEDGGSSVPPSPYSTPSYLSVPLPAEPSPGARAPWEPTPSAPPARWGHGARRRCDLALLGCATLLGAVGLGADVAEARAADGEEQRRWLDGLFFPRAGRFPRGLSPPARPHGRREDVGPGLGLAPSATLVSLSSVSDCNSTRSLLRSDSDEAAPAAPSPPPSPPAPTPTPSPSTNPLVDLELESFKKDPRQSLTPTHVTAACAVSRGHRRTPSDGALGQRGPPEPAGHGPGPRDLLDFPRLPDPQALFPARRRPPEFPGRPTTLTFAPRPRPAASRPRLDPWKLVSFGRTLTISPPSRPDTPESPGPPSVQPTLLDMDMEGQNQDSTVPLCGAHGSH
| SMILES | remaining activity |
| --- | --- |
| Oc1cccc(-c2nc(N3CCOCC3)c3oc4ncccc4c3n2)c1 | 92% |
| O=C1Nc2ccc(Br)cc2/C1=C/c1cc2c([nH]1)CCCC2 | 99.8% |
| O=C1Cc2c([nH]c3ccc(Br)cc23)-c2ccccc2N1 | 79.3% |
| CN(C)S(=O)(=O)c1ccc2c(c1)/C(=C/c1cc3c([nH]1)CCCC3)C(=O)N2 | 99.1% |
| O=C1NC(=O)c2c1c1c3ccccc3[nH]c1c1[nH]c3cc(Br)ccc3c21 | 70.4% |
| COc1ccc2c(c1)c(C1=C(c3c[nH]c4ccccc34)C(=O)NC1=O)cn2CCCN(C)C | 83.4% |
| CN1CCN(c2ccc3nc(-c4c(N)c5c(F)cccc5[nH]c4=O)[nH]c3c2)CC1 | 91.4% |
| c1ccc2c(-c3ccncc3)c[nH]c2c1 | 101% |
| N#Cc1cnc2cnc(NCc3cccnc3)cc2c1Nc1ccc(F)c(Cl)c1 | 101% |
| Cc1cc(Nc2cc(N3CCN(C)CC3)nc(Sc3ccc(NC(=O)C4CC4)cc3)n2)[nH]n1 | 61% |
| c1ccc(-c2n[nH]c3c2oc2ccccc23)cc1 | 91.4% |
| O=C1NC(=O)c2c1c1c3ccccc3[nH]c1n1cncc21 | 82.5% |
| COc1cccc(-c2cc(=O)c3ccccc3o2)c1N | 90% |
| Cc1ccc(S(=O)(=O)/C=C/C#N)cc1 | 105% |

Further values, each from its own experiment
| Structure (SMILES) | target | effect on | technique | tested at | endpoint | result |
| --- | --- | --- | --- | --- | --- | --- |
| O=C([C@H]1C[C@H](O)CN1c1ccc(Cl)cc1)N1CC2COCC(C1)N2Cc1ccc(Cl)cc1 | 5-hydroxytryptamine receptor 2B (HTR2B, Homo sapiens, UniProt P41595) | binding | radioligand binding | 10 µM | inhibition | 14.8% |

Excerpt of the above (sample 1):
| Structure (SMILES) | EC50 [µM] |
| --- | --- |
| Cc1cc(-c2cc(-c3cccc(C(F)(F)F)c3)nc3c(C)noc23)ccn1 | ≥ 100 |
| Cc1cc(N(C)C)ccc1NC(=O)c1ccc2noc(-c3ccccc3)c2c1 | ≥ 100 |
| COc1cc(OC)c2ccc(=O)oc2c1 | ≥ 100 |
| COc1ccccc1N1CCN([S+](=O)([O-])c2cc(C)c(C)cc2C)CC1 | ≥ 100 |
